Assay results from different studies.
Numbered parts are unrelated; each lists some results of a single study.

Study 1
Target: RING finger protein unkempt homolog, zinc fingers 1-6, GST-SBP tag (UNK, Homo sapiens, UniProt Q9C0B0, residues 30-357)
Sequence of UniProt Q9C0B0 (30-357, looked up): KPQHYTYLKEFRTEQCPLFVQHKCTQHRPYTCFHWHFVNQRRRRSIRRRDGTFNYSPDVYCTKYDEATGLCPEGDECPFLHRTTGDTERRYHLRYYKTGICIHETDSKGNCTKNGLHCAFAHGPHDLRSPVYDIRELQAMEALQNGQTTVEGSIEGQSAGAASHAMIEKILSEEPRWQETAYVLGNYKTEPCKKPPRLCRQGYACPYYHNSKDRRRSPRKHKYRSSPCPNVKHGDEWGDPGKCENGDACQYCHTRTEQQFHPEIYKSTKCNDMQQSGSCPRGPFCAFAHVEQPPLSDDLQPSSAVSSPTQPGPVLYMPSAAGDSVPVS
Technique: RNA Bind-n-Seq
Form: RNA
Matrix: in vitro
Tested at: not given
Notes: RNA with constant flanks, ends assumed
Reference: input RNA pool
Reading: higher = stronger binding
Constant ends, left off below: GGGAGUUCUACAGUCCGACGAUC … CAACAGAGGAUUGAGCAUCA
Strand	bound/input enrichment [ratio]
ACUGGUUUUGGAUUAGGAAUUGUUUUCUCACUUACCUUCUUUAAAAGAAGAAUGUGGCCAUCCGCCUUCGGUUCUGGCAUGGGAUUAGGAAUGGCUUAUUCCAACUGUCAGCAUGAUUUC	0.317
GACUUAGAUAAUUCUUUGGAAGUGAAGGCUAAGCCUGCUUCUGGCCUAGAUGGUAAUUUCAACCGCAUCCGAAUGGAUAUGUUCAGUGUGUAGGAGUGAAGACAGGAUCCCGUGCUUAAA	0.598
GCAUAAAAAGCACAAUUGCUAGGACUUCAGUUUUUACUUCAGACUAAAGCUACCCAAGGACUCCGCAGAUAUGGGGGUUACAUCAGUGCUGGUCAUUGUAGCCUGAGUAUACAAUCAAGC	0.142
CCCCCAGACACUGCUGCCAGGCUGGGCUGGUCCCAGCCCUUAGGUAACCUCCAAGCUCCCUCCGGCUAUGAUAAGUUUAGCUAUUCUUGGCGGAGCAAGAAAGGCACCAAGUUCCACCAG	0.292
UGUCUUUAUUUGACGAAAACGAGCUGUUGCGCAGCCAUUGGUACCUGUAUUGGGGAAACACCGCAUACAAGCAAGAAGCUUACAGCCUCAGUGGCGAAAAUUUUUUCAUGUCAGAGACCG	0.096
CCCAAGCACUGUAGAGGAAGCUGUGCUCGCCUUAGAGCAUUUUUUUUCUUGCGUUUUGGUUUCCGGGGUGGGUGGGUUGUGGCACACACCUCUGAGGCCAGAGCCAUCGGGUUCACCCUC	0.455
CAGAACCUACCUUCUGGAUCAUCACGUGUUGGAGCCAUUAAGCUUACCUACAUUUCAAAGGUCCGCGAUGCUACUAAGCUAAGGCCAAAGGCGGAGUUCUGUUUUGUUAUGAAUGCAGGA	0.0809
GGGUCUACUAUAUGUAAAAAGUAUACAUAUAAAAAUAUAUAUAUAUAAUGUUUGUUUAAAACCGAGUAUUUUUAUUUCCUCCCUAACUCAUCAUUGAAGAGGUGAUAUUACACUUCAGAU	0.409
CUCUUUGAAUCAUUCAAGAGUUUUGAAGGUCUCUUUUAUUUUCUGGGGUCCAUUGUUAACUUCCGUCAGGACCCAGAUGUGCACUUUAAAUAUAUUCAGGCGGCUUGCAAGACUGGGCAA	0.623
UAAAAGAAAUAGCUGUUAUUAAUGCCUUUUUGUUUUCCAUUGAGUGUACACUACUGAAUAAGUGCCGGAGUUUUAUGUUUACCAUGUGAGUCCUGCAACACUAAAGAUAUUUUGAAUAUC	0.575
CCCUGUUCCGUUUUGGUUGAUGGGUGUUUGGGAGGGGGCUGCGGGGGAUACUUUUUUUUUCCGUUCUUCUUUACCCUUAAGGUCAGCCCAUCACAAAAACAGAAACCGUUAAAUACCCCC	0.288

Study 2
Target: Sal-like protein 4, full length isoform A (SALL4, Homo sapiens, UniProt Q9UJQ4, residues 1-1053)
Sequence of UniProt Q9UJQ4 (whole entry, looked up): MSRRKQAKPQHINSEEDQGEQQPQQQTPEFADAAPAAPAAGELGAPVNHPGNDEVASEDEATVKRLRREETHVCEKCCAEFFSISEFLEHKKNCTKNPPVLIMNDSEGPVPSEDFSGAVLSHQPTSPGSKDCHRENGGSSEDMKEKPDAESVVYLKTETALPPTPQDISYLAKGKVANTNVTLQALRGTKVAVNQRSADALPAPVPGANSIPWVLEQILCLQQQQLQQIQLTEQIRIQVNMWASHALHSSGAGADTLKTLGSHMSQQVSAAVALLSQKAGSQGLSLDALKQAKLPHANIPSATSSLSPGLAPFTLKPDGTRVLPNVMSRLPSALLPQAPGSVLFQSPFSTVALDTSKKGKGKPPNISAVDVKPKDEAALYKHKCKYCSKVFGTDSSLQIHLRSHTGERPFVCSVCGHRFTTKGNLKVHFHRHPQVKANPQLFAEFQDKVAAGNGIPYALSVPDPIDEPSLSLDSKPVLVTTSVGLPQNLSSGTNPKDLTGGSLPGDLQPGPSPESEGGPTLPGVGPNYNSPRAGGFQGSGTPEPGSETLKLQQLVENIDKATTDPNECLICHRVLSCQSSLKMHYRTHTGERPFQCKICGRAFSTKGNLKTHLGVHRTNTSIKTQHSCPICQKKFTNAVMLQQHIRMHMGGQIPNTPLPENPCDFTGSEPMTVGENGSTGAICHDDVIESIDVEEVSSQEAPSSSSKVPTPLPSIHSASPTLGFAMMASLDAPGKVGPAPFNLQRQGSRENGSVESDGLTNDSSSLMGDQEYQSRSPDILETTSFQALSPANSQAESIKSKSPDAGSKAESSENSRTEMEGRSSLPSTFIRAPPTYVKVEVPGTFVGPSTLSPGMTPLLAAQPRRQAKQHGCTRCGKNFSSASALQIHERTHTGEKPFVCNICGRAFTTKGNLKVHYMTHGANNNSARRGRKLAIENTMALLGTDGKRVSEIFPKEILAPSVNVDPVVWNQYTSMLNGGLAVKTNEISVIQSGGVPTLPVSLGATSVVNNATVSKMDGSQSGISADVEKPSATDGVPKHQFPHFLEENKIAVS
Technique: universal PBM
Form: double-stranded DNA, one strand shown
Matrix: in vitro
Tested at: 600 nM
Notes: 8-mer, flanks averaged, mean of replicates
Reading: higher = stronger binding
Strand	E-score
GGGGTTTA	-0.0756
GTTCGCAA	0.114
AGAGGAGG	-0.23
ATAAGCAC	0.124
TCGACCAA	-0.0478
TAGACCGA	-0.06
GATGCCCA	-0.04
AGCACCCA	-0.184
CTAAGCTC	-0.136
CATGCGTA	0.161
GAACAATA	0.29
GGTAAAGA	0.115
CCAGCTTC	-0.201
GGAAATAA	0.335
ATACTTCA	0.282
CGAAAGCG	-0.27
GGTGCCGA	-0.21
CCCTATAA	0.16
TACCTCTA	0.195
CCCACAAC	-0.129
TCAAACCA	0.111
CGCGACAC	-0.189
CTCTAAAA	0.118
GGAATGGA	-0.177
CTTGGCCA	-0.194

Study 3
Target: Interferon regulatory factor 3, full length, phosphomimetic (IRF3, Homo sapiens, UniProt Q14653, residues 1-427, S386D/S396D/S398D/S402D/T404D/S405D)
Sequence of UniProt Q14653 (whole entry, unmodified, looked up): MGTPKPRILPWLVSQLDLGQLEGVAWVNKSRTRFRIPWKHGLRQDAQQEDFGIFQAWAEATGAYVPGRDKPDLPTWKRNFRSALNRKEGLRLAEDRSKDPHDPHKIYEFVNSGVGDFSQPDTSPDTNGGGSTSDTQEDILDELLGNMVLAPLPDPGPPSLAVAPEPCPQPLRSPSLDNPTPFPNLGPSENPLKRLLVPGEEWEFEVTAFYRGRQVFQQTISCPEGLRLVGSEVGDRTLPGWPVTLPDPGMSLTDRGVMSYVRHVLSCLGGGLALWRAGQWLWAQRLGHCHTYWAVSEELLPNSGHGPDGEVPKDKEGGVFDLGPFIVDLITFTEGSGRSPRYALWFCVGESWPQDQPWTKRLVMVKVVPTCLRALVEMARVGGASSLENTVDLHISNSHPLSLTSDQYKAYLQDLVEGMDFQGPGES
Technique: protein-binding microarray
Form: double-stranded DNA, one strand shown
Matrix: in vitro
Tested at: 2540 nM top
Notes: 60-bp whole probe
Added: salmon DNA 0.4 mg/ml
Reference: random background probes
Reading: higher = stronger binding
Constant ends, left off below: GCCTAGCAC … GTCTTGATTCGCTTGACGCTGCTG
Strand	fitted relative affinity
TAAGGACTGGGTTTCGGTTAGTGCTAG	3.39 z-score
GACGATATCAGACTGGCGACGTGCTAG	0.149 z-score
TCATCTTCCTTCATGGCACTGTGCTAG	1.59 z-score
TCAACTTCCCAATTGTCACTGTGCTAG	1.54 z-score
TCACTTTTCACTTTCTTACTGTGCTAG	3.37 z-score
GGATTGCAACCCCTCAAAAAGTGCTAG	0.455 z-score
GACAATATCAGTCTCGAGACGTGCTAG	1.23 z-score
TTAGATTCCAATTTCGATTAGTGCTAG	4.63 z-score
TGTGCTTTCCTGATGACCCTGTGCTAG	1.24 z-score
GGTGATTTCAGTTTTCTTTTGTGCTAG	4.85 z-score
TTAGGTATCCACACTGGGTTAGTGCTA	1.63 z-score
TTAGGTCTCCTTCGCCTTTAGTGCTAG	0.148 z-score
GCCGGTATCGACTATCGGGACGTGCTA	0.855 z-score
TCAAGTTTCACTGCTGCACTGTGCTAG	2.06 z-score
TTAGGTCTCCATCTCCTTTAGTGCTAG	2.77 z-score
GATGGTTTCGGTTTCGGGACGTGCTAG	11.2 z-score
CTTTACATGGGTTTTCAGCTGGTGCTA	0.432 z-score
GCACGTGACTGTTTCCCAATGTGCTAG	3.12 z-score
CTTTATGTCCTGTCTACATGGGTGCTA	1.85 z-score
TCAGAACTGAGTTTCGATTAGTGCTAG	2.92 z-score
TTAGGACTGGGTATCGGGTAGTGCTAG	-0.39 z-score
TGATTGGTTGAACATGAACTGTGCTAG	-0.102 z-score
TTCCTTCTTGAACTCTTTACGTGCTAG	2.07 z-score

Study 4
Target: RNA binding protein fox-1 homolog 2, RRM domain, GST-SBP tag (RBFOX2, Homo sapiens, UniProt O43251-10, residues 100-194)
Technique: RNA Bind-n-Seq
Form: RNA
Matrix: in vitro
Tested at: 365 nM
Notes: natural RNA segment, single round, ends assumed
Reference: no-protein control
Reading: higher = stronger binding
Constant ends, left off below: GGGAGUUCUACAGUCCGACGAUC … UGGAAUUCUCGGGUGCCAA
Residues (chain): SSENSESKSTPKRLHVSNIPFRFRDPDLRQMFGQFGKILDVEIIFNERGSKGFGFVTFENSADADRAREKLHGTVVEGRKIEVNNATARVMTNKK
Strand	RBNS enrichment (R)
UGUGACUCGAGAUUGCAGUUGCAACUUGGCAGCUUUUUUCUACUGGACAGGAAGAUGGCAGAAGCUACGCUAUUGUCAUAGCAAAAGAGCUUUCUAUUUGGCACAUACCA	0.429
ACAUGUAAGUUUGAAGUAUUACUGUUUUCUCAGCAUGAAUUAAAAAUAUUCUGUAACUCAGCCAGGCAAGGUAGCUCAUGCCUGUGAUCCCAGCAUUUGGGAAACAGAGG	11.3
AUUGGUUUGAGGUUUUCUGACACUAAUUAAAAGAAAAAUUAGAUCAGGGUGUGGUAGCAAAUGCCUAUAAUCCCAGCAUUUAGGAGGCAGGGAUAGGAAUCUCAGGUUCA	0.5
CCAACCUGUGGCUGUGGAUGAACCAGUGUCGCCCCAGCGCGGCCUCCGUAUUGGAGCCCUCCCUGCUUCCCCUUCUUUCUUUCCUCUUUCCCCAGGCCGCCACUGCCCUU	0.686
GAAAGUUUACAACCUGUUCUGAAACUAUUUGUCUUUUCACUGGUUGUAAGUGUACCCCAAUCUCAGGGAGUAUAUCUGUAGUGCCACAGGCAAAAGAUCCACUCCUUCCC	0.326
UAAGAAAGGCGCUUUACAGAUAUAAAGAAAGGGAACAUGACAGCUGCCUGAUGGCUUAGCCUGGAGACCUCCUCAUUGCCAAAGUUGUUCCCAUGCCACAAAGCAUCUCU	2.02
AUUUUUAUGCUUGACAAGUUGUAUUUUAUAUAUUAGAAAUAAGAUGCCACACAGGGCAAUCCAGAUUUAGAUUAAAGAAAGGAUACACAGACAUUAAUCUGCAACAGGUC	0.602
UUUGCUCGUCUGUAAUAGUUAUGUAUGAAGGACUCUUAAUUGCAACUGAAAAGGUCGUGUAUAGGUUAGAGAUACAGGGAGCCCAUUUUAUAUUUGCAUACCCUUUUAUU	2.42
UCUCCAUGUGUGAAGUAGCUUCCUCCCUCAGCCUGCAAGGGUCCGAUUUGCCAUCGAAAGACGACCUCUACUUUUUUCUUUUGUAUUUUGAUAAACACUGAAGAAGCUGG	0.571
UUUUAAAUAAUUACUAGCAACUCUGUGACUACAUUUAUUUUUAUUUUUUUUAGAGACAGGAUCUUGCUAUGUUGCCCAGGCUAGAGAGCAGUGGCUUUUCACAGACAAAG	0.787
UUAAAAGUCUACUCAGCUCUAGAUUAGAUACCAGAAGACCCUCUAAGUAACUGAUAACUGAGAUUCGGGACCAUGUCUUGUUUGCCAUUGUGCCCUUGGAAUUUAAUACA	0.316
ACGAGACUAUAAAAGGCUUAGCCACACUACGGGACAAAUUGUGUUGUGAAUUCGCAUUGCUGUUUUGUGUACUAAAACGUAACCAUUGGCAUUGUGAACAACAAGCUCUU	0.399

Repeated from above (study 4):
Strand	RBNS enrichment (R)
UUUGCUCGUCUGUAAUAGUUAUGUAUGAAGGACUCUUAAUUGCAACUGAAAAGGUCGUGUAUAGGUUAGAGAUACAGGGAGCCCAUUUUAUAUUUGCAUACCCUUUUAUU	2.42
UCUCCAUGUGUGAAGUAGCUUCCUCCCUCAGCCUGCAAGGGUCCGAUUUGCCAUCGAAAGACGACCUCUACUUUUUUCUUUUGUAUUUUGAUAAACACUGAAGAAGCUGG	0.571
UUUUAAAUAAUUACUAGCAACUCUGUGACUACAUUUAUUUUUAUUUUUUUUAGAGACAGGAUCUUGCUAUGUUGCCCAGGCUAGAGAGCAGUGGCUUUUCACAGACAAAG	0.787
UUAAAAGUCUACUCAGCUCUAGAUUAGAUACCAGAAGACCCUCUAAGUAACUGAUAACUGAGAUUCGGGACCAUGUCUUGUUUGCCAUUGUGCCCUUGGAAUUUAAUACA	0.316
